Measurements collected from several papers.
Each numbered part is a random draw from the data of one study; scales do not carry over between parts. Positions count from the first letter of the parent shown.

Study 1
Target: RNA binding protein fox-1 homolog 2, RRM domain, GST-SBP tag (RBFOX2, Homo sapiens, UniProt O43251-10, residues 100-194)
Method: RNA Bind-n-Seq
Molecule type: RNA
Sample: in vitro
Tested at: 365 nM
Setting: natural RNA segment, single round, ends assumed
Reference: no-protein control
Direction: higher = stronger binding
Endpoint: RBNS enrichment (R)
All sequences stand within: GGGAGUUCUACAGUCCGACGAUC … UGGAAUUCUCGGGUGCCAA
Target sequence (chain): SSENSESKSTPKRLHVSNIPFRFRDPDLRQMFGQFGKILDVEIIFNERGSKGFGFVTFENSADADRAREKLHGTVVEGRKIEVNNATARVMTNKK
UGUUUCAUUGUCCAGAAAGCAGCAGGAAACUAUUCAGUUGUGAUCAAGCAGGAAAAAAGAAACACCAACAGUUGCCAGUGUUUUUGCUUUUUAGCUUAAAAGCAUAGUGA: 0.352
UUGGACAUUACAAUGUAAAACACAUUUUCUUCAAACACGUUUUCCCUUUUGUUUCAAAAAAUGUAAUAUUUUCCCCCAAGCGUUUUAUAUUUAUGUAUUUUGUAUUCAAU: 0.504
AGUGCCUGUUUCCGAGGAACCCUGUCUCCAGCUUGUGGCUAUCUUACUGUGUUCUGCCCAGGCACCUGAUGAGGUACAUCCUGCAGUGCCUCUCUGUGCUUGGCUCUGGC: 0.937
UGGAUGCAAGAUAGAUACUAUAUUAAACUGUACUGUUAUUUAAGAUGUAAUAAAGCAGUUUGACAUGGGGACUUUGGUGUGGUGAUUAUUUACGGGUCCACUUCCAGUUU: 0.809
GAAAGAACAUAUUAAAACUUCUUUCCCUUGCGAUUUUUUUGGGGGAGGGGGGUUAGCAUUUCCACUUUCAGUUGAGUAGCAUUUUGUAGAAUAAAAUGAAUUAAGAUUGA: 0.427
GUUUGUAAAAUAUUUGUUCGUGCUCUUUUUGUUGUUGUUGUUGUUGUUAGGCCCACCACACGAGUUUACAGGUCUGUGGCAAUACUCUUAACUCAGUAAAGAUGGAAGUG: 0.467
AUUGUAUAUUUAGUGUGUGUAUUUUGAUAAUGAUUGAUCUUAAAUCUGUAUACAGAAUAUCAUUGAUAUAAUACUCUUUAGGCAGGAGCACUCUUGCCUUCCCCCAAAAU: 0.379
CCAUGGCCCAGUCACUCAGGGGCGAGUUUCUUUUCUAACAUAGCCCUUUCUUUGCCAUGAGGCCAUGAGGCCCGCUUCAUCCUUUUCUAUUUCCCUAGAACCUUAAUGGU: 0.268
CCCUGUGUACCCAUUAACAAAGCCAACUAUGUCCUCUCUCCAGAAUGCCCACCCCUACUGUGGCCACAUCAUGCCCAGUGUCCCCCCAGGUAGGAGCAGAUACAGUGCAG: 1.17
AGGGUAUCUUUUUAUAUCACAGCCUAGGACUCUUCCAUCUUAUAAUUACAAGCUGACAGUGUACAAUGUUCCAACAGAAAUAUUAUCAUAACAUGCCUUUUUUGUAUCAA: 0.373
UUGUCUUUUUUGAUCUAAUUUAUAUUUUAUAUUGUUGAAUUCUCCCUCCUUUGGCUUGUGGGAUCCUUUUUCUCUAAUAUCUGUCUUUCUUUUUUUAGUUGAUCUUUCCA: 1
AGCCUUCAUUUUUAACUCAAAUUGAUGCUCAGUAAAGGUCAAUGACAAUUUGUUCAAGGAAGUUCAUCUAAAAUAAUCUGGAGGCCUUGAAAAUGAUCCCUCUAAAAUGC: 0.765

Study 2
Target: Transcription factor Sp1 (SP1, Homo sapiens, UniProt P08047, residues 1-785, full length assumed)
Sequence of UniProt P08047 (whole entry, looked up): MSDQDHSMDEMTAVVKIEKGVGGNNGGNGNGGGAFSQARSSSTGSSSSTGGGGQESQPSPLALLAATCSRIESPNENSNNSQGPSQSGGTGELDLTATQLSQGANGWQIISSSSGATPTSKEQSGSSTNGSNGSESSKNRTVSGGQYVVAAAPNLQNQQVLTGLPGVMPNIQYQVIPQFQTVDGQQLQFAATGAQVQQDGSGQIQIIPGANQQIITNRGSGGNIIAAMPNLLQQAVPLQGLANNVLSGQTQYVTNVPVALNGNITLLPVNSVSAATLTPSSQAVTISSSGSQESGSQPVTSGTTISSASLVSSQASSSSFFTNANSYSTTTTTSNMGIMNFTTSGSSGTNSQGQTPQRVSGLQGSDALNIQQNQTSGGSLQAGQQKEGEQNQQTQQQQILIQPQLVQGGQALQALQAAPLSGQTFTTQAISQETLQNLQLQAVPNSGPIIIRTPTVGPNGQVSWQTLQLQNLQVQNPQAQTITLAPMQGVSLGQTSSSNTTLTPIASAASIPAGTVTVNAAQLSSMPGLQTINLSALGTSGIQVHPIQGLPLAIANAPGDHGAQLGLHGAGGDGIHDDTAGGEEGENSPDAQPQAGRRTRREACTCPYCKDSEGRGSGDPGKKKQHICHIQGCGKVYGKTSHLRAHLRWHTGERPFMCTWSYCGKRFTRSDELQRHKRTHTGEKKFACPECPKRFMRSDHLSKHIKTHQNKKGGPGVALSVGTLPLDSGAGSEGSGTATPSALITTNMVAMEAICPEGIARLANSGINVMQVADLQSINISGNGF
Method: protein-binding microarray
Molecule type: double-stranded DNA, one strand shown
Sample: in vitro
Tested at: not given
Setting: k-mer, scored over probes, only values ≥0.25
Direction: higher = stronger binding
Endpoint: E-score
GACCCCTC: 0.277
GCCGCCCC: 0.467
ATCCCCGC: 0.346
GTGGGCGA: 0.313
ACACGTGT: 0.259
AGGGGCTG: 0.302
AGTAGGGG: 0.305
ATGGGGTA: 0.279
TGGTACAA: 0.269
ACCCCTAC: 0.294
CCCCTTCC: 0.265
CCCATATA: 0.311
ATGTGGGC: 0.258
GGGCGTTA: 0.262
ACATAGAC: 0.254
ACATGTAG: 0.302
ACGCCCAT: 0.416

Study 3
Target: Sal-like protein 4, full length isoform A (SALL4, Homo sapiens, UniProt Q9UJQ4, residues 1-1053)
Sequence of UniProt Q9UJQ4 (whole entry, looked up): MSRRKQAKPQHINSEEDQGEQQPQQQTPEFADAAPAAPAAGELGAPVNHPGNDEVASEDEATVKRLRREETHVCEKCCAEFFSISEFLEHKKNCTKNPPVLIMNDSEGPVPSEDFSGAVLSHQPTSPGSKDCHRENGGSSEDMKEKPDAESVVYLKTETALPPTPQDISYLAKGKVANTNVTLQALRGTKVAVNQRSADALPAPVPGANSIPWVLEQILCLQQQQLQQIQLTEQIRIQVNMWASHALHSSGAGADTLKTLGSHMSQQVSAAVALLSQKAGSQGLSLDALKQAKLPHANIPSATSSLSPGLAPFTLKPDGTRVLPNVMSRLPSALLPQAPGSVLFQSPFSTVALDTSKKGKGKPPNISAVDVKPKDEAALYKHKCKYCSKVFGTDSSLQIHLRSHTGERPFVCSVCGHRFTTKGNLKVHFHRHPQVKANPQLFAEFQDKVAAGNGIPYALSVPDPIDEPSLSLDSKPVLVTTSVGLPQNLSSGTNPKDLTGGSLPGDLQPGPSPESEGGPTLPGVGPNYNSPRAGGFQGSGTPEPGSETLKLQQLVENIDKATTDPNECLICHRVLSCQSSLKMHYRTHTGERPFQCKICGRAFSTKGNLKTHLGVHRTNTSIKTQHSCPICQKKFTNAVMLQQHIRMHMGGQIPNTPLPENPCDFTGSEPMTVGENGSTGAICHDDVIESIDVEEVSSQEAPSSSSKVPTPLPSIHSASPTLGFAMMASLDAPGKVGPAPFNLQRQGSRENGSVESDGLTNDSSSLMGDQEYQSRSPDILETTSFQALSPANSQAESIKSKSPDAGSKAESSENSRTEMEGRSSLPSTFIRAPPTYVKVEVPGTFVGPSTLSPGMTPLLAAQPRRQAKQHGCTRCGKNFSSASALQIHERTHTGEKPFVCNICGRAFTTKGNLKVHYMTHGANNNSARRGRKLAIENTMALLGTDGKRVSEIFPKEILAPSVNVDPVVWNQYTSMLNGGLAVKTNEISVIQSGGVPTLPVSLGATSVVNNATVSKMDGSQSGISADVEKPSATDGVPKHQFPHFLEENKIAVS
Method: universal PBM
Molecule type: double-stranded DNA, one strand shown
Sample: in vitro
Tested at: 600 nM
Setting: 8-mer, flanks averaged, mean of replicates
Direction: higher = stronger binding
Endpoint: E-score
AAGGTGGC: -0.261
CGACCCTA: -0.287
CCTATTGC: 0.00886
ATCTTGCG: 0.0662
ACACGACA: 0.112
CCGCGCCC: -0.376
CATGCCAG: -0.235
CAAAGCAG: 0.00642
CAGATTTA: 0.153
CACTGTAG: -0.0111
GCCCACAA: -0.153
AATTCCGG: -0.0946
AACTCCCG: -0.0907
CGGAGTGA: -0.202
CAGCTGAG: -0.108
AGACGGCA: -0.164
TGGTACCA: -0.277
AATATCGT: 0.326
ATTTACGA: 0.235
ATATCAGA: 0.284
ACACTAGG: -0.0441
CTTTTTTA: 0.231
GAATACCC: -0.153
GTATCAAC: 0.0565
ACTTTACA: 0.13

Study 4
Target: Centromere-binding protein 1, full length, His-tagged (CBF1, Saccharomyces cerevisiae, UniProt P17106, residues 1-351)
Sequence of UniProt P17106 (whole entry, looked up): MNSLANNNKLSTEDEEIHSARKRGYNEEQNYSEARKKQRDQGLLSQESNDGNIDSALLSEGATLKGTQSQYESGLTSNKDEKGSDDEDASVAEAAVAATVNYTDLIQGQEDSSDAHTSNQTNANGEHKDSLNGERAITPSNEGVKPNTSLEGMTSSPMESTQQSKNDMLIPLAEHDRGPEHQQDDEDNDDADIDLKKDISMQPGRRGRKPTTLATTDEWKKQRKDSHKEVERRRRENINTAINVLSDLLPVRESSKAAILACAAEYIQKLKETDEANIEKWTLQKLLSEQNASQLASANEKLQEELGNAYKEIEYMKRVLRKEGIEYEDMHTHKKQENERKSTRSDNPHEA
Method: competition protein-binding microarray
Molecule type: double-stranded DNA, one strand shown
Sample: in vitro
Tested at: 2 µM
Setting: whole 60-bp probe, lowest competitor level
Together with: Pho4 competitor, 0.05 µM
Direction: higher = stronger binding
Endpoint: fluorescence intensity
All sequences stand within: … GTCTTGATTCGCTTGACGCTGCTG
AAATTACTAAGTTGATCTGTGGGTGACGCCGTATGA: 76 a.u.
GTCCTGGAAGCCTGACGCGTGCGATCTTCTCCTCCC: 81.7 a.u.
AGATCAATTATCCGAAGCGGGTCCCAACCCGGAAAT: 53.9 a.u.
TCATCGCACATTTTGCACGATGAGGACACAGGAAAT: 70.2 a.u.
TTGGTCTACCAAATGCACCTGATTTACAAGCGGCTA: 159 a.u.
GCTCAAATAAAAGGACACGTGGTCAACCCTCAATCA: 3870 a.u.
AAAGCGGTAATTTGTCACAGTACTTCACATATCTAT: 85.7 a.u.
CGATGGCGCCAGCATCACCTGGAGAGCATGGTGTTA: 68.8 a.u.
TGGAAATAACACTTCCACGTGGAACTATTAAATTGG: 1070 a.u.
AGAGAGTGGGATGCGGGCGTGGGTATCTGCTGTTAC: 61.3 a.u.
CGGGGTTAAGTTTGCATGGTGGGTGGCTTGCAGCAG: 64.8 a.u.
ATCCAGAACATTTTGCACGTGTTCCTTATACAGTCG: 2570 a.u.
AAATTACTAAGTTGAGTCGTGGGTGACGCCGTATGA: 72.9 a.u.
GTCTTGTCTCATTGCGCGGTGGGTGTCCCCACTTCA: 81.3 a.u.
TCTCATAAAAGTGAAACCGTGACGAATGTAAGATGT: 152 a.u.
CTATCCAGCCACTCCCATGTGATAACGGTCGAAGTG: 245 a.u.
CGGGGTTAAGTTTGTCACTAGACTTGCTTGCAGCAG: 76.7 a.u.
ACTTAGCGCAAACGTCACCTGGGTGGCGTTTTCCGC: 77.3 a.u.
TGCGCAACAACTTGACAGGTGGGTGTATGTCTAGAA: 76.2 a.u.
TGATGTGAGTGCACTTAGTACTGATTTAGTGAGAGA: 77.1 a.u.
AAAGCGGTAATTTGTTCTGTGGGTGCAGATATCTAT: 62.3 a.u.
TCGTCATTGTGGATACACGTGAGATTAATGCCTCAT: 1520 a.u.
TCTTTCTGAATTTAGCACGCTTGGCACCGGTAGCGG: 73.3 a.u.
CGTCCTAGTGATTGTCGGGTGGGTGCCATGAGGAAG: 79.8 a.u.
AGAGAGTTGATAGAACAAAGGACAAAGAAATTTAGA: 76.4 a.u.

Study 5
Target: CCNB1, cyclin fold, Cln2 fusion (human)
Method: yeast growth competition, sequencing
Sample: yeast
Setting: weak parent motif
Reference: not given
Direction: higher = stronger binding
Endpoint: normalised enrichment score
Parent: GMNC docking peptide (human); KNAKRNLSSEFAN
E10M: -0.0746
A12P: 0.246
A3E: -0.0751
F11Q: 0.115
L7I: 0.372
E10S: 0.244
S9N: -0.0832
R5E: 0.579
F11M: 0.274
N6H: -0.0413
E10N: -0.0618
S8V: 0.261
S8I: -0.0107
N6V: -0.0466
E10W: 0.0735
K4M: -0.0251
A12V: -0.299
F11N: -0.435
L7G: 0.126
A3V: 0.614
S8E: -0.027
A12C: 0.175
L7A: 0.105
N2W: 0.173
F11C: 0.33

A few entries again (study 3):
CATGCCAG: -0.235
CAAAGCAG: 0.00642
CAGATTTA: 0.153
CACTGTAG: -0.0111
GCCCACAA: -0.153
AATTCCGG: -0.0946
AACTCCCG: -0.0907
CGGAGTGA: -0.202
CAGCTGAG: -0.108
AGACGGCA: -0.164
TGGTACCA: -0.277
AATATCGT: 0.326
ATTTACGA: 0.235
ATATCAGA: 0.284
ACACTAGG: -0.0441
